Measurements of several laboratories.
Numbered parts are unrelated; each lists some results of a single study.

Study 1
Target: Phosphate system positive regulatory protein PHO4, full length, GST-tagged (PHO4, Saccharomyces cerevisiae, UniProt P07270, residues 1-312)
Technique: competition protein-binding microarray
Molecule type: double-stranded DNA, one strand shown
Matrix: in vitro
Tested at: 2 µM
Setting: whole 60-bp probe, lowest competitor level
Together with: Cbf1 competitor, 0.05 µM
Direction: higher = stronger binding
All sequences stand within: … GTCTTGATTCGCTTGACGCTGCTG
Target sequence (chain): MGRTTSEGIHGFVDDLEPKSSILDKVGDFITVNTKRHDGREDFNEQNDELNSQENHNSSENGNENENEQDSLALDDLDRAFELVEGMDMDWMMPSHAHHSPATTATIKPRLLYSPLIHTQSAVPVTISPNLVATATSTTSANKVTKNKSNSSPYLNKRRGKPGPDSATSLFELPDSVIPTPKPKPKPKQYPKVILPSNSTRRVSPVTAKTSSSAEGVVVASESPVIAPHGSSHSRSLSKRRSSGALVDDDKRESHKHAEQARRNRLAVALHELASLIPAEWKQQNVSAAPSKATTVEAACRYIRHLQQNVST
Sequence	fluorescence intensity [a.u.]
AAAGCGGTAATTTGTTATGTGGGTGCAGATATCTAT	4430
TGCAGCGGGTGCGGCCACGTTTTAAAGTGATTCTGC	11800
CTTTTTAGGGACCGTCACGGGAAGCCTGTTGGAGAC	5060
CGCGCAGGATGCCATCACGGGCGATGGGACCACTAC	5540
AGAAAGTCTTGTAACCAGATGGTGACAAAAACTTGG	3130
GGCGGGTTTCTTCGGCACGCACAGGAGGCACCCCAG	8300
CTTCTGTAAATTTGTGTCGTGGGTGGACGCGCCCCG	6150
ACCACAGTGTCGGCCAACGTGCTTTACATTGAAGAT	14300
AAGACCCCGGTAAAATTCGTGACGGATCATCGCCTA	3050
TTTACCCCTGGTACCCACGTCCAGTTCGCTTATCTC	4760
GTCTTGTCTCATTGTCTCGTGGGTGTCCCCACTTCA	9600
CTAACGAAGGTTTAGCACGTGTTTTACAAGCCAAGT	17100
CTTTCCCGATCTTGTTTTGTGGGTGTAGCACATTTG	4630
CCGTCCTTTTCACTTCACGTTCGCAGGGCTTTCCTG	7450
CGTCCTAGTGATTGTTGTGTGGGTGCCATGAGGAAG	8220
AATTTATCTTGGCAAAACGTGGGTATGGAACTTTTG	15200
CTTCTGTAAATTTGATCCGTGGGTGGACGCGCCCCG	5670
CGGGGTTAAGTTTGTCACAAAACTTGCTTGCAGCAG	3250
TCTTTTTCGACCGGCCACGTGAGAAGACATACAGTT	14900
AGTAGAAACAATAGTATCGTGATGGGATCCCTCTTG	4930
CTGCCGTTGCTTCAGCACATGTTCCAAAAGACCTTG	10700
TGGTCTTTGAACAAGATCATGCCATTCTGGGCTGGC	3950
ACCCAGGGGCGCCCCCACGTGGGGTCTGGGAGCGCG	20000
GAGCTTGTGGGTCAACACGTTTCTTGGGATGAGACA	13100
CTACTACAGCGTAGGCACGGGTGCATACATCTTCAA	10300

Study 2
Target: RNA binding protein fox-1 homolog 2, RRM domain, GST-SBP tag (RBFOX2, Homo sapiens, UniProt O43251-10, residues 100-194)
Technique: RNA Bind-n-Seq
Molecule type: RNA
Matrix: in vitro
Tested at: 365 nM
Setting: natural RNA segment, single round, ends assumed
Baseline: no-protein control
Direction: higher = stronger binding
All sequences stand within: GGGAGUUCUACAGUCCGACGAUC … UGGAAUUCUCGGGUGCCAA
Construct (chain): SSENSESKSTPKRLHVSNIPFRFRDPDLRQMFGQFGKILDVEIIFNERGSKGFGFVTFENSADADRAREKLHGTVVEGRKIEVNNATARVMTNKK
Sequence	RBNS enrichment (R)
CCUCCUCAUUCUCUUUUGCCAUUGGAAUGUCCCCUUGCAGUUCUCUUCUCUUUUUUUUUUUUUUUGAGAUGGAGUUUCACUCUUGCUGCCCAGGCUGGAGUGCAGUGGCU	0.881
AGCACUGCUCCGUAUAUAAGUUAAUUUGUAAAUCCGGAGCAGACGGCAUGCUAAGUCCUGUAAUUCCCUCUAACAUUGAGUCAGAUACAUCAUGGGACAUCAUGGGAUGG	0.667
GAGUCUGGGUGCUUGUCACCUAGCCUGACAUUCUGAGUUCAAUCCCUGGGACCCGCCUGAUAGGAGAGAACUGACUUCUACAAGUUGUCCUCUGACCCAAUAGAUUUACA	0.243
GUAUGGUUUCCCCAGGUCUGAACUGGGUACCCCCAGGGUGUUUACUAACUCUGGUGAAGGGUUUGGAAACCAUAUGUGGUUCUAGAAUUAACUCCCCUUUCCCUCAAACU	0.318
AACUGCAUUGUAUCUAAAGCCUUAGAACUAGUCAGGUGCUCCUCCCACCCAAUACCAUUUCUUACCCUCUAAUCCUACCUGAUCUUUAACAAAGCAUUAAUAAUUCUAAG	0.838
AGCUUGGGAGAAAGGAACUGGAAGAACAUGAAAAAGCAGGGGCAUGUGUAGACAUUAGUGAAAAUUAACAAUGCACGUUAUUUGCAAAUGUCAGCAAUUAUCUGUACAUG	12.4
UCUUCACUGUCUGUUGUUUACCUACCGUAGCUUUUUACCGUUCACUUCCCCUUCCAACUAUGUCCAGAUGUGCAGGCUCCUCCUCUCUGGACUUUCUCCAAAGGCACUGA	0.904
CAUUUGCCUAACAGACUUUUGCAGAGGCGAUGGCAGAGAGCAGCUGCAGGCAUGGUCCCUGGAGCCGAGCCUUCACCACGCACUCGUCCAAGUUCGGAUGCGGGAACCUG	0.444
CCUCUGGGCAGCCUGGCGUGGGGACACUUGUUCUGUUCUGUCAUAUCCAAAACAAACUCCAUCCCCCCCAAGGCAGCCCAAAUAUCCAGAAACGGGCUCACCUGGACUAU	0.276

Study 3
Target: Interferon regulatory factor 3, full length, phosphomimetic (IRF3, Homo sapiens, UniProt Q14653, residues 1-427, S386D/S396D/S398D/S402D/T404D/S405D)
Technique: protein-binding microarray
Molecule type: double-stranded DNA, one strand shown
Matrix: in vitro
Tested at: 2540 nM top
Setting: 60-bp whole probe
Together with: salmon DNA 0.4 mg/ml
Baseline: random background probes
Direction: higher = stronger binding
All sequences stand within: GCCTAGCAC … GTCTTGATTCGCTTGACGCTGCTG
Construct (chain): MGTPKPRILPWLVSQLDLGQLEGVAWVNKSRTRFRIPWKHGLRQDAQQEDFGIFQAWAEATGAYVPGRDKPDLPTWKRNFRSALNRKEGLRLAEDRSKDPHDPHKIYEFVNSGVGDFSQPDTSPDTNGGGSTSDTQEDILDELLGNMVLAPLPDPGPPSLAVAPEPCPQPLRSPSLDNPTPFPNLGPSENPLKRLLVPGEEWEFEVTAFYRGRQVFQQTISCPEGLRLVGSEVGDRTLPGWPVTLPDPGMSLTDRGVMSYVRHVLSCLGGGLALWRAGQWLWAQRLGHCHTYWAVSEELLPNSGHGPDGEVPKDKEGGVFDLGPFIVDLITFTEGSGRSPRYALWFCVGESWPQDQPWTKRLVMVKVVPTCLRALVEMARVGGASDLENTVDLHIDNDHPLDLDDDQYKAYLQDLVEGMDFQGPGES
Sequence	fitted relative affinity [z-score]
TTAGATCTCGGACTGGGTTAGTGCTAG	-0.361
TCACTTTTAATTTTTAAACTGTGCTAG	2.43
CTAGATATCAGTATCGATTAGTGCTAG	1.94
GGATTTCAGTTTCTCTTTCCGTGCTAG	6.12
TTAGGTTCCGACTTTCGGTTAGTGCTA	4.11
AGTCTTCTCCTCTAGGTTCTCGTGCTA	0.249
TTGGGTTTCGGGACTGGGTTAGTGCTA	2.96
TCAATGATCTTCCTTCATACTGTGCTA	-0.206
TTAGGTTTCGGCCTCGGTTAGTGCTAG	2.81
TTAGATCCCAGACTGGATTAGTGCTAG	0.39
TCATTTTTTTTCATCATTGCGTGCTAG	1.03
TCAGATCTCAGTCTCGATTAGTGCTAG	1.31
TTAGGACTGCTTTCCCTTTAGTGCTAG	4.16
GACGGTTTCCTTTCCGTGACGTGCTAG	10.1
TAAGGTCTCGGTCTCGGTTAGTGCTAG	0.975
GTCATTTACATTTTAGTAGTGTGCTAG	1.68
TTACGTCTCGGTTTCGGTTAGTGCTAG	5.25
TTAGGGCTGGGGACTGGGTTAGTGCTA	-1.5
GAGGAACTGGGGACTGGAGACGTGCTA	-0.989
TCATCTTTCCTTCTTGAACTGTGCTAG	6.17
TTAGAACTGAGTTTCGATTAGTGCTAG	2.62

Study 4
Target: Histone acetyltransferase KAT6A, winged helix 1, GST fusion (KAT6A, Homo sapiens, UniProt Q92794, residues 1-85)
Technique: protein binding microarray
Molecule type: double-stranded DNA, one strand shown
Matrix: in vitro
Tested at: not given
Setting: 8-mer, flanks averaged, mean of 2 arrays, mostly near background
Baseline: not given
Direction: higher = stronger binding
Construct (chain): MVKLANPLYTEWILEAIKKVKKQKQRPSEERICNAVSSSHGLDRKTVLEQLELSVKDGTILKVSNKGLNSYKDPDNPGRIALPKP
Sequence	E-score
CACAGTCG	-0.0969
TAAACTTA	-0.197
ATTCCCGA	0.145
GTTCCATA	0.0406
CCATAGAC	-0.115
ATCTCCAG	-0.269
CCCCAAGG	-0.125
GGGATGTA	0.0488
ATTCTTCC	-0.0657
GGCACACA	-0.152
CACCAATC	-0.0647
CCCACAGG	-0.194
AAACCAAG	-0.213
AGCACACG	0.00509
CCGATAAC	0.0913
AATGCGGG	0.17
ATGCTGTA	-0.098
CACGATCA	-0.147
ACGAGCTC	-0.255
AGACGCGA	0.0531
GCACGAGA	0.0499
CACGGGAA	0.296
CCGGTGAG	0.0992
CCCCTAAG	-0.212
TCAAAGAA	-0.246
